Measured values gathered from unrelated publications.
Each numbered part is a random draw from the data of one study; scales do not carry over between parts.

Set 1
Target: TAR DNA-binding protein 43, full length, His tag (TARDBP, Homo sapiens, UniProt Q13148, residues 1-414)
Technique: RNA Bind-n-Seq
Form: RNA
Medium: in vitro
Concentration: 20 nM
Notes: 6-mer, flanks averaged, single round
With: 150 mM LiCl
Baseline: input library
Direction: higher = stronger binding
Strand | 6-mer enrichment (R)
CGUUAU | 0.954
ACUCUG | 0.86
GCGGGA | 1.11
GAUGUG | 1.37
AUAUUG | 1.01

Set 2
Target: Histone acetyltransferase KAT6A, winged helix 1, GST fusion (KAT6A, Homo sapiens, UniProt Q92794, residues 1-85)
Technique: protein binding microarray
Form: double-stranded DNA, one strand shown
Medium: in vitro
Concentration: not given
Notes: 8-mer, flanks averaged, mean of 2 arrays, mostly near background
Baseline: not given
Direction: higher = stronger binding
Residues (chain): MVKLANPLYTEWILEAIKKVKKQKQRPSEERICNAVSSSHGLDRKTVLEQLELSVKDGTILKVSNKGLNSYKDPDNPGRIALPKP
Strand | E-score
ACAATTTC | -0.186
AAAAAAAC | -0.101
CCGTACCG | 0.398
AAATACGT | -0.204
ACATAACA | -0.0571
CTCCTTCA | -0.187

Set 3
Target: TATA-box-binding protein 1 (TBP1, Arabidopsis thaliana, UniProt P28147, residues 1-200, full length assumed)
Technique: protein-binding microarray
Form: double-stranded DNA, one strand shown
Medium: in vitro
Concentration: not given
Notes: k-mer, scored over probes, only values ≥0.25
Direction: higher = stronger binding
Construct (chain): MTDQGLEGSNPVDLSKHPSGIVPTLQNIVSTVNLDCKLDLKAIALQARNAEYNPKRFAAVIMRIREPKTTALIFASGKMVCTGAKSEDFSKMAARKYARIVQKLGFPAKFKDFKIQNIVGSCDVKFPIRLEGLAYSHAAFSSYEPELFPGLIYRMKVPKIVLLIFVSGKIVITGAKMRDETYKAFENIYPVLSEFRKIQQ
Strand | E-score
AAATAAC | 0.272
AAACTTA | 0.268
GAAATTA | 0.316
ATAAGGA | 0.328
TATAGCA | 0.257
ATACATA | 0.362

Single results of other studies
Molecule | target | assay | test system | conditions | scale | quantity | value
PhoQ, residues 284 288 289 292 302 303 NLCILV | PhoP, residues 12 14 15 18 19 TPWLV (Escherichia coli, UniProt P23836) | Sort-seq, item: YFP reporter | E. coli | PhoQ-PhoP variant library, with: 10 µM Mg2+ | baseline: high Mg2+ state, higher = stronger signaling | fold induction | 15.7

Repeated from above (set 1):
Strand | 6-mer enrichment (R)
AUAUUG | 1.01
